Measurements pooled from the literature.
Each line is one published result; not all experiments were run side by side. Numbers after ± are the reported error.

| SMILES | target or system | test | system | conditions | endpoint | result |
| --- | --- | --- | --- | --- | --- | --- |
| Cc1ccc(N2CC(N3CCC(C)(O)CC3)C2)cc1C(=O)NC1(c2ccc3c4c(cccc24)CC3)CC1 | SARS-CoV-2 | viral replication | Vero C1008, Omicron BA.5 | 0.005716 µM | inhibition | 0% |
| Cc1oc2nc1C(=O)N[C@](C)(C(=O)NCCc1ccccc1)c1nc(c(C)o1)C(=O)N[C@](C)(C(=O)NCCc1ccccc1)c1nc(c(C)o1)C(=O)N[C@]2(C)C(=O)NCCc1ccccc1 | SARS-CoV-2 | viral adsorption | Vero E6, NRC-03-nhCoV | 2.5 µM | inhibition | 0% |
| Cc1ccc(N2CC(N3CCC(C)(O)CC3)C2)cc1C(=O)NC1(c2ccc3c4c(cccc24)C(=O)N3C)CC1 | SARS-CoV-2 | viral replication | Vero C1008, wild type | 0.05144 µM | inhibition | 70% |
| CC(C)CC(C(=O)N1CC2(CC1C#N)C(=O)Nc1ccccc12)N(C)C(=O)c1cc2c(F)cc(F)c(F)c2[nH]1 (stereo not shown) | SARS-CoV-2 | viral replication, infectious virus | Vero E6 | 0.1 µM | inhibition | 100% |
| CCOC(=O)c1c(CSc2ccccc2)n(C)c2cc(-c3cccnc3)c(O)c(CN3CCN(CCOCCO)CC3)c12 | SARS-CoV-2 |  | Vero C1008, MEX-BC2/2020 | 7.5 µM, 96 h | inhibition | 23% |
| Cc1oc2nc1C(=O)N[C@](C)(C(=O)OC(C)C)c1nc(c(C)o1)C(=O)N[C@](C)(C(=O)OC(C)C)c1nc(c(C)o1)C(=O)N[C@]2(C)C(=O)OC(C)C | SARS-CoV-2 | viral adsorption | Vero E6, NRC-03-nhCoV | 5 µM | inhibition | 0% |
| Cc1ccc(N2CC3CC(C2)N3C)cc1C(=O)NC1(c2ccc3c4c(cccc24)C(=O)N3C)CC1 | SARS-CoV-2 | viral replication | Vero C1008, Omicron BA.5 | 0.05144 µM, 72 h | inhibition | 0% |
| O=P(O)(O)Oc1c2c(c(OP(=O)(O)O)c3c1C1CC3c3cc4c(cc31)C1CC4c3ccccc31)C1CC2c2cc3c(cc21)C1CC3c2ccccc21 | SARS-CoV-2 | viral infection | BetaCoV/France/IDF0372/2020 | concentration not given | inhibition | inhibited |
| Cc1ccc(N2CCN(C)CC2)cc1C(=O)NC1(c2ccc3c4c(cccc24)CC3)CC1 | SARS-CoV-2 | viral replication | Vero C1008, wild type | 0.01715 µM | inhibition | 0% |
| C[C@@H]1O[C@@H](n2c3ccccc3c3c4c(c5c6ccccc6[nH]c5c32)CNC4=O)C[C@@H](N)[C@H]1O | SARS-CoV-2 | viral replication, mNeonGreen reporter virus |  | 50 µM | inhibition | 93.2% |
| Cc1oc2nc1C(=O)N[C@](C)(C(=O)O)c1nc(c(C)o1)C(=O)N[C@](C)(C(=O)O)c1nc(c(C)o1)C(=O)N[C@]2(C)C(=O)O | SARS-CoV-2 | viral replication | Vero E6, NRC-03-nhCoV | 5 µM | inhibition | 30% |
| CCCCCCCCCCCCCCCC(=O)N[C@@H](CCC(=O)NCCOCCOCCC(=O)NCCOCCOCCC(=O)NCCCC[C@H](NC(=O)[C@H](CC(=O)O)NC(=O)[C@H](CC(C)C)NC(=O)[C@H](Cc1ccc(O)cc1)NC(=O)[C@H](CCCCN)NC(=O)[C@H](CO)NC(=O)[C@H](Cc1ccc(O)cc1)NC(=O)[C@H](CC(=O)O)NC(=O)[C@H](CO)NC(=O)[C@@H](NC(=O)[C@H](Cc1ccccc1)NC(=O)[C@@H](NC(=O)CNC(=O)[C@H](CCC(N)=O)NC(=O)[C@@H](CO)NC(=O)[C@@H](N)Cc1c[nH]cn1)[C@@H](C)O)[C@@H](C)O)C(=O)N[C@@H](CCCNC(=N)N)C(=O)N[C@@H](CCCNC(=N)N)C(=O)N[C@@H](C)C(=O)N[C@@H](CCC(N)=O)C(=O)N[C@@H](CC(=O)O)C(=O)N[C@@H](Cc1ccccc1)C(=O)N[C@H](C(=O)N[C@@H](CCC(N)=O)C(=O)N[C@@H](Cc1c[nH]c2ccccc12)C(=O)N[C@@H](CC(C)C)C(=O)N[C@@H](CC(C)C)C(=O)N[C@@H](CC(N)=O)C(=O)N[C@H](C(=O)NCC(=O)NCC(=O)N1CCC[C@H]1C(=O)N[C@@H](CO)C(=O)N[C@@H](CO)C(=O)NCC(=O)N[C@@H](C)C(=O)N1CCC[C@H]1C(=O)N1CCC[C@H]1C(=O)N1CCC[C@H]1C(=O)N[C@@H](CO)C(N)=O)[C@@H](C)O)C(C)C)C(=O)O |  |  | rhesus monkey | subcutaneous, 20 µg/kg, single dose | Tmax | 1.83 ± 0.408 h |
| CC(C)(C)NC(=O)[C@@H](c1cccnc1)N(C(=O)c1ccco1)c1ccc(C(C)(C)C)cc1 | SARS-CoV-2 | viral replication | Vero | 1 µM | inhibition | 1.52% |
